Published values from different studies.
Compare with care: the assays were run in different laboratories. Numbers after ± are the reported error.
Cell line: OVCAR-3

CC(=O)OC[C@H]1O[C@@H](Sc2sc(C(=O)c3ccc(Br)cc3)c(N)c2-c2nc3ccccc3s2)[C@H](OC(C)=O)[C@@H](OC(C)=O)[C@H]1OC(C)=O
growth (SRB; 10 µM, 48 h; reference: untreated): 67.1%

CC(C)c1cccc(C(C)C)c1[N+]#[C][Pd-]([Cl])([Cl])=[C](Nc1cccc(CN[C](Nc2c(C(C)C)cccc2C(C)C)=[Au][Cl])c1)Nc1c(C(C)C)cccc1C(C)C
IC50 (cell growth or viability): 20 µM

COc1ccc(CC2COC(=O)C2Cc2ccc3c(c2)OCO3)cc1OC (mixture of isomers)
IC50 (cytotoxicity, MTT; 72 h): 14.3 ± 0.32 µM

CC(C)c1cccc(C(C)C)c1[N+]#[C][Pt-]([Cl])([Cl])=[C](Nc1cccc(CN[C](NC(C)(C)C)=[Au][Cl])c1)Nc1c(C(C)C)cccc1C(C)C
IC50 (cell growth or viability): > 100 µM

CC(=O)c1cccc(NC2C(N)C(NC(=O)N(C)C)(C(C)O)C(O)C2(O)COC(=O)c2c(C)cccc2O)c1 (stereo not shown)
GI50 (cell growth or viability, SRB): 0.041 µM

CC(=O)O[C@H]1C(=O)[C@]2(C)[C@@H](OC(=O)[C@H](N)CSC3CC(=O)N(CCC(=O)Nc4ccc(-c5ccc(/N=N/c6ccc7c(S(=O)(=O)O)cc(S(=O)(=O)O)c(N)c7c6O)c(C)c5)cc4C)C3=O)C[C@H]3OC[C@@]3(OC(C)=O)[C@H]2[C@H](OC(=O)c2ccccc2)[C@]2(O)C[C@H](OC(=O)[C@H](O)[C@@H](NC(=O)c3ccccc3)c3ccccc3)C(C)=C1C2(C)C (stereo partly shown)
cellular uptake (flow cytometry; concentration not given, 4 h): 29.1%

CC(=O)OC[C@H]1O[C@@H](Sc2sc(C(=O)c3ccc(C)cc3)c(N)c2-c2nc3ccccc3s2)[C@H](OC(C)=O)[C@@H](OC(C)=O)[C@H]1OC(C)=O
growth (SRB; 10 µM, 48 h; reference: untreated): 65.9%

CCC(=C(c1ccc(Cl)cc1)c1ccc(OCCCN(C)C)cc1)c1ccc(OC)cc1
GI50 (cell growth or viability): 3.27 µM

CC1(C)[C@@H](O)CC[C@]2(C)[C@H]3C(=O)C=C4[C@@H]5C[C@@](C)(C(=O)O)CC[C@]5(C)CC[C@@]4(C)[C@]3(C)CC[C@@H]12
IC50 (cell growth or viability, MTT; 48 h): 72.4 µM

CC/C=C\C/C=C\C/C=C\C/C=C\C/C=C\C/C=C\CCC(=O)Nc1ccn(C2OC(CO)C(O)C2(F)F)c(=O)n1 (stereo not shown)
GI50 (cell growth or viability, SRB): 11.1 µM

CC(=C(c1ccc(O)cc1)c1ccc(Cl)cc1)c1ccc(Cl)cc1
GI50 (cell growth or viability): 0.67 µM

Cc1cc(C)c([N+]#[C][Pt-]([Cl])([Cl])=[C](Nc2cccc(CN[C](Nc3c(C(C)C)cccc3C(C)C)=[Au][Cl])c2)Nc2c(C)cc(C)cc2C)c(C)c1
IC50 (cell growth or viability): > 100 µM

COc1ccc2c(c1)/C(=N\Nc1nnc3n1N=C(c1ccccc1)CS3)C(=O)N2
inhibition (cell growth or viability, SRB; 10 µM): 17%
